Experimental data gathered from unrelated publications.
Compare with care: the assays were run in different laboratories. Several values in a cell are separate wells, animals, samples, runs or records. ± gives the spread as reported.

Compound	cell line	test	conditions	how to read	quantity	result
O=C(CS)NCCCCCC(=O)Nc1cccc2cccnc12	Caco-2 monolayers		together with: indomethacin 140 µM	reference: B-A over A-B	efflux ratio	0.77
COc1cccc(-c2n[nH]c(SCc3ccccn3)n2)c1OC	primary human lymphocytes		0.25 mg/mL, 3 h		structural aberrations per 100 cells	0.5
Cc1noc(C)c1Cn1cc(N2C(=O)CN(Cc3cccc(O)c3)C2=O)cn1	human blood lymphocytes		823.8 µg/mL, 3 h		aberrant cells with gaps	2.5%
O=c1cc(-c2ccc(O)c(O)c2)oc2cc(O)cc(O)c12	Caco-2 monolayers		100 µg/mL, 2 h	reference: Papp(BL-AP) over Papp(AP-BL)	efflux ratio	0.59
CCCC(CCC)NC(=O)c1ccc2c(c1)OCO2	CHO-WBL		0.19 mg/mL, without S9, exposure		cells with aberrations	0.5%
COc1ccc(CCC(=O)c2c(O)cc(O[C@@H]3O[C@H](CO)[C@@H](O)[C@H](O)[C@H]3O[C@@H]3O[C@@H](C)[C@H](O)[C@@H](O)[C@H]3O)cc2O)cc1O	Caco-2 monolayers	basolateral to apical transport	100 µg/mL, 2 h		amount transported	7.29 ± 3.2%
COc1cc(/C=C/C=C2\SC(=S)NC2=O)cc(OC)c1O	HEK-293T	CellTiter-Glo	40 µM, 24 h, unit not given	reference: untreated	viability	1.03 and 0.958
C[C@@H]1O[C@@H](O[C@H]2[C@H](Oc3cc(O)c4c(c3)O[C@H](c3ccc(O)cc3)CC4=O)O[C@H](CO)[C@@H](O)[C@@H]2O)[C@H](O)[C@H](O)[C@H]1O	Caco-2 monolayers		100 µg/mL, 2 h	reference: Papp(BL-AP) over Papp(AP-BL)	efflux ratio	0.38 ± 0.05
O=C(C[C@@H](C(F)F)n1ccc(F)n1)N1CCC(O)(Cn2cnc3c(cnn3-c3ccc(F)cc3)c2=O)CC1	CAPAN-1 parental	SRB	0.02744 µM, 5 days		viability	72.8% and 66.3%

Repeated from above:
Compound	cell line	test	conditions	how to read	quantity	result
C[C@@H]1O[C@@H](O[C@H]2[C@H](Oc3cc(O)c4c(c3)O[C@H](c3ccc(O)cc3)CC4=O)O[C@H](CO)[C@@H](O)[C@@H]2O)[C@H](O)[C@H](O)[C@H]1O	Caco-2 monolayers		100 µg/mL, 2 h	reference: Papp(BL-AP) over Papp(AP-BL)	efflux ratio	0.38 ± 0.05
